Published values of several laboratories.
Parts stem from different laboratories: compare values within a part only.

Set 1
Target: Interferon regulatory factor 7, full length, phosphomimetic (IRF7, Homo sapiens, UniProt Q92985, residues 1-503, S101K/S471D/S472D/S475D/S476D/S477D/S483D/S484D/S487D)
Chain of UniProt Q92985 (whole entry, unmodified, looked up): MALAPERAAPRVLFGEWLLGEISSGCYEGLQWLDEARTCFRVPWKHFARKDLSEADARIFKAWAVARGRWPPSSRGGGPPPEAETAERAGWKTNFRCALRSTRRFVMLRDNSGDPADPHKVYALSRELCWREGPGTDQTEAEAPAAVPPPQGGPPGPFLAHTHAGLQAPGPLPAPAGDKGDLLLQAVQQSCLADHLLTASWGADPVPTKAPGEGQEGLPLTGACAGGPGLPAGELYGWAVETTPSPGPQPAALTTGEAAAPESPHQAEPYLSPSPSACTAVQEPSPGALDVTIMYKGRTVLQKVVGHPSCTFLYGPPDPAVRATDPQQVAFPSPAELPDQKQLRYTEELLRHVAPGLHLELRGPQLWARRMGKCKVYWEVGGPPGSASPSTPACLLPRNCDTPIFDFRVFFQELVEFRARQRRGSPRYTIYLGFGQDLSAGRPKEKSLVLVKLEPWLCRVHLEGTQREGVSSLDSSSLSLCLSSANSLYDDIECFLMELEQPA
Technique: protein-binding microarray
Form: double-stranded DNA, one strand shown
Matrix: in vitro
Tested at: 250 nM
Setting: 60-bp whole probe
With: salmon DNA 0.4 mg/ml
Reference: random background probes
Direction: higher = stronger binding
Oligonucleotide | log fluorescence [z-score]
GCCTAGCACGACGGTCTCCTTCTCCTTACGTGCTAGGTCTTGATTCGCTTGACGCTGCTG | -0.188
GCCTAGCACTCATTTTTGGAATGTCTTACTGTGCTAGTCTTGATTCGCTTGACGCTGCTG | 0.926
GCCTAGCACGACGAACTGAGTCTCCAGACGTGCTAGGTCTTGATTCGCTTGACGCTGCTG | -0.182

Set 2
Target: Sal-like protein 4, full length isoform B (SALL4, Homo sapiens, UniProt Q9UJQ4-2, residues 1-616)
Technique: universal PBM
Form: double-stranded DNA, one strand shown
Matrix: in vitro
Tested at: not given
Setting: 8-mer, flanks averaged, mean of replicates
Direction: higher = stronger binding
Oligonucleotide | E-score
AAAGGTCT | -0.00774
ACGGACGC | -0.284
CACCGACC | -0.242

Set 3
Target: Histone acetyltransferase KAT6A, winged helix 1, GST fusion (KAT6A, Homo sapiens, UniProt Q92794, residues 1-85)
Technique: protein binding microarray
Form: double-stranded DNA, one strand shown
Matrix: in vitro
Tested at: not given
Setting: 8-mer, flanks averaged, mean of 2 arrays, mostly near background
Reference: not given
Direction: higher = stronger binding
Target sequence (chain): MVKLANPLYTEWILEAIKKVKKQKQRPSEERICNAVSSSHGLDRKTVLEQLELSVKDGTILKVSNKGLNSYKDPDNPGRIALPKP
Oligonucleotide | E-score
TAGCCTGA | -0.338
AAGCCTCG | 0.0244
GACTGAAA | -0.171
ACTATCGA | 0.00593

Further values, each from its own experiment
Molecule | target | test | system | conditions | scale | measurement | result
PhoQ, residues 284 288 289 292 302 303 TAVSDG | PhoP, residues 12 14 15 18 19 SGWQI (Escherichia coli, UniProt P23836) | Sort-seq, item: YFP reporter | E. coli | PhoQ-PhoP variant library, with: 10 µM Mg2+ | reference: high Mg2+ state, higher = stronger signaling | fold induction | 1.33

Repeated from above (set 3):
Oligonucleotide | E-score
ACTATCGA | 0.00593
